Measurements pooled from the literature.
Compare with care: the assays were run in different laboratories. Several values in a cell are separate wells, animals, samples, runs or records. ± gives the spread as reported.
USP3 ZnF-UBD domain: Ubiquitin carboxyl-terminal hydrolase 3, ZnF-UBD domain (USP3, Homo sapiens, UniProt Q9Y6I4)
Chain of UniProt Q9Y6I4 (whole entry, looked up): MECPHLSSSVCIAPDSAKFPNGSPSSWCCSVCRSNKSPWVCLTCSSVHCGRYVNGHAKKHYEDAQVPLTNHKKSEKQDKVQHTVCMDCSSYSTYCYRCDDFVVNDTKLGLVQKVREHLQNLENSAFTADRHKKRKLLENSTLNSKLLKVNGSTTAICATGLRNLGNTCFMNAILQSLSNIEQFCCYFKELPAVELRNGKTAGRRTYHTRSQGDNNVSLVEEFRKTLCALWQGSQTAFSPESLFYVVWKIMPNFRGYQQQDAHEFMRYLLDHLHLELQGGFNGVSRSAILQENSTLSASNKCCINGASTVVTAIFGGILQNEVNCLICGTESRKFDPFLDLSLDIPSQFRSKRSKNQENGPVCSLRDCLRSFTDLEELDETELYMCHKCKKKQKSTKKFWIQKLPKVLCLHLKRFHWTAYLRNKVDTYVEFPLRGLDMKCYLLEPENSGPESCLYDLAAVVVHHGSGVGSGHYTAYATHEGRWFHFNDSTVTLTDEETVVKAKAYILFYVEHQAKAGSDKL

SMILES | tested on | assay | system | setting | scale | endpoint | result
CNC(=O)c1ccc(-c2cnc3ncc(Cc4ccc5ncccc5c4)n3n2)cc1F | – | refers to: Diarrhea, all grades | gastric cancer patients | oral, 600 mg twice daily, expansion cohort, any causality | – | patients with adverse event | 11%
CC(C)(C(=O)N1CCOc2c(C#N)cncc2C1)C(F)F | – | refers to: gastrointestinal disorders | human | oral, 10 mg, CSF pharmacokinetic cohort | – | subjects with adverse event | 16.7%
CN1CCC(c2ccc(-c3ccc(C4CCCCC4)cc3)cn2)CC1 | – | liver microsome stability | dog liver microsomes | 1 µM | – | hepatic clearance | 1.62 L/h/kg
CCCCCCOC(=O)NC(=N)c1ccc(NCc2nc3cc(C(=O)N(CCC(=O)OCC)c4ccccn4)ccc3n2C)cc1 | – | – | human | oral, 75 mg, compound alone | – | participants with TEAE haematoma | 8.3%
c1ncc(-c2ccc(C3CCCCC3)cc2)cn1 | – | hepatocyte stability | cryopreserved mouse hepatocytes | 1 µM | – | hepatic clearance | 3.96 L/h/kg
C=CC(=O)Nc1cc(Nc2nccc(-c3cn(C4CC4)c4ccccc34)n2)c(OC)cc1N(C)CCN(C)C | – | bench-top stability | rat plasma | 160 ng/mL, 3 h, room temperature | relative to: nominal concentration | relative error | -8.5%
Cc1ccc(OC2CCN(c3ncnc4ccc(F)cc34)CC2)cn1 | – | – | rat liver microsomes | – | – | intrinsic clearance (scaled) | 85.9 L/h/kg
Cc1nc(-c2ccc(OCC(C)C)c(C#N)c2)sc1C(=O)O | – | – | KM mouse, chronic hyperuricaemia model | dose not given, day 16 | – | body weight | 36.8 g and 36.4 g and 32.6 g and 31.4 g and 40.4 g and 33.2 g
CCN1/C(=C/C(C)=O)Sc2ccc(F)cc21 | – | – | cynomolgus monkey | oral, 100 mg/kg, 2 h post-dose | relative to: pre-dose | systolic blood pressure change | 96.5 ± 3.8%
O=C(Nc1ccc([C@H]2[C@@H](F)[C@@H](F)C[C@@H](F)[C@H]2F)cc1)c1cn[nH]c1 | – | – | human liver microsomes | 1 µM, without NADPH | – | hepatic clearance | 0.234 L/h/kg
O=C(Nc1ccc(Cl)cc1)Nc1ccc(Cl)c(Cl)c1 | – | – | whole cow milk | 200 nM nominal | – | dose fraction in milk fat | 83.8%
Cc1ccc([C@@H]2O[C@H](CO)[C@@H](O)[C@H](O)[C@H]2O)cc1Cc1ccc(-c2ccc(F)cc2)s1 | – | – | Japanese type 2 diabetes patients | 200 mg, day 18, 24 h urine collection | relative to: baseline | urinary calcium excretion change | -28.5 mg
O=c1ccc2ccc(O)cc2o1 | – | – | human liver microsomes | – | – | intrinsic clearance | 749 µL/min/mg protein
CC(=O)N[C@@H](CS)C(=O)O | – | – | human | oral, 1.2 g | – | true systemic bioavailability | 78.1%
C=CC[C@@H]1/C=C(\C)C[C@H](C)C[C@H](OC)[C@H]2O[C@@](O)(C(=O)C(=O)N3CCCC[C@H]3C(=O)O[C@H](/C(C)=C/[C@@H]3CC[C@@H](O)[C@H](OC)C3)[C@H](C)[C@@H](O)CC1=O)[C@H](C)C[C@@H]2OC | – | – | male Wistar Kyoto rat | intraperitoneal, 0.5 mg/kg/day, day 28, at sacrifice | – | plasma creatinine | 29 ± 2 µmol/L
CN1C(=O)[C@@H](NC(=O)c2nnc(Cc3ccccc3)[nH]2)COc2cccnc21 | – | phase I multiple ascending dose | human, male and female | oral, 600 mg, 14 days | – | TEAE leading to permanent discontinuation | 0%
Cc1cc(C(=O)NC(C)(C)COc2cccc3c2C(N)=NS(=O)(=O)N3)cc(C)n1 | human peripheral blood lymphocytes | CBPI, preliminary test | – | 2 µg/mL, 24 h | relative to: vehicle control | cytotoxicity | 12%
Cc1sc2ncn(CC(=O)O)c(=O)c2c1C | USP3 ZnF-UBD domain | – | – | – | – | Kd | 290 µM
O=C1NCCc2nc(OCc3cccc(F)c3)ccc21 | – | refers to: loss of Grasping | Sprague-Dawley rat male | oral, 100 mg/kg, 1 h | direction not given | Irwin test score | 0
CC(C)C[C@@H]1NC(=O)CN(C)C(=O)[C@H](Cc2ccccc2)NCc2cc(c[nH]2)CNC1=O | – | PAMPA | 2% lecithin in dodecane | 100 µM, 17 h, pH 6.4, 37 °C | – | -log Pe | 6.76 + 0.17
[18F]c1ccc(-c2ccc3c(c2)[nH]c2ccncc23)cn1 | – | ex vivo biodistribution | B6SJL mouse, normal, stomach | intravenous, 30 min | – | SUV | 2.07 ± 0.594
Cc1cc(C)c(CNC(=O)c2cc(Cl)c3c(c2C)O[C@@](C)([C@H]2CC[C@H](N(C)C)CC2)O3)c(=O)[nH]1 | – | refers to: Sepsis | human patients | oral, 200 mg once daily, 1 day onset day 14 | – | patients with grade ≥3 TEAE | 0%
COC1=C(OC)[C@H](O)[C@H](C/C=C(\C)CC/C=C(\C)CCC=C(C)C)[C@@H](C)C1=O | – | – | mouse, BALB/c, male, whole blood | oral, 50 mg/kg, 4 h | – | blood concentration | 0.0352 µM and 0.0313 µM
CC(C)C[C@H](NC(=O)C[C@H](O)[C@H](CC(C)C)NC(=O)[C@H](Cc1c[nH]cn1)NC(=O)CNC(=O)[C@@H](NC(=O)[C@H](C)NC(=O)[C@H](Cc1c[nH]c2ccccc12)NC(=O)[C@H](CCC(N)=O)NC(=O)[C@@H](Cc1ccccc1)NC(=O)COCCOCCNC(=O)CCC(C(=O)O)N1CCN(CC(=O)O)CCN(CC(=O)O)CCN(CC(=O)O)CC1)C(C)C)C(N)=O (some centres unmarked) [lutetium-177 labelled] | – | – | BALB/c nu/nu mice, female, liver | 50 pmol, 1 h, added: PA 300 µg | – | tissue uptake | 0.5 ± 0.1 %ID/g
CCO[C@H]1CCN(Cc2c(OC)cc(C)c3[nH]ccc23)[C@H](c2ccc(C(=O)O)cc2)C1 | – | – | human moderate hepatic impairment, plasma | oral, 200 mg single dose, geometric mean | – | total AUC(0-t) | 52.9 µg·h/mL
Cc1ccc2c(c1)C(=O)[C@]1(O)CCN(c3ccc4nc(C)ccc4c3)C1=N2.Cl | – | – | rat, plasma | subcutaneous, dose not given, day 7 pre-dose, repeated daily dosing | – | trough plasma concentration | 0.43 µM
O=C(O)Cn1cnc2ccccc2c1=O | USP3 ZnF-UBD domain | – | – | – | – | Kd | 328 µM

SMILES | tested on | assay | system | setting | scale | endpoint | result
C#C[C@]1(O)CC[C@H]2[C@@H]3CCC4=CC(=O)CC[C@@H]4[C@H]3CC[C@@]21C | – | – | HIV-infected women without protease inhibitor, serum | oral, 0.35 mg, steady state | – | Cmin geometric mean | 0.00013 µg/mL
CCOc1c([C@H](C)n2nc(C)c3c(N)ncnc32)cc(Cl)c(F)c1[C@@H]1CNC(=O)C1 | – | – | human B-cell malignancy patients | oral, all doses, baseline below threshold | – | observations with PR >220 ms | 1.6%
FC(F)(F)CN1CC(n2cc(Oc3ccn4nc(Cl)cc4n3)cn2)C1 | – | – | Crl:CD(SD) rat, male | oral, 150 mg/kg/day, 14-day repeat-dose toxicology | – | day of premature euthanasia | 8 days
C=CC(=O)Nc1cc(Nc2nccc(-c3cn(C4CC4)c4ccccc34)n2)c(OC)cc1N(C)CCN(C)C | – | – | BALB/c nude mouse, LU0387 xenograft, blood | oral, 40 mg/kg | – | LYMPH percentage | 54.7 ± 5.62%
COc1ccc([C@@H](O)c2cc(-c3ncnc4cc(N5CCOCC5)ccc34)c(F)cc2Cl)nn1 | – | – | locally advanced rectal cancer patients | 100 mg, drug-related adverse events, added: capecitabine and radiotherapy | – | patients with investigation abnormalities | 50%
OC[C@H]1O[C@@H](Oc2c[nH]c3ccccc23)[C@H](O)[C@@H](O)[C@@H]1O | – | ultrafiltration | normal rat serum | 37 °C | – | serum protein binding | 96 ± 3%
O=C(c1ccc([C@H]2[C@@H](F)[C@@H](F)C[C@@H](F)[C@H]2F)cc1)N1CC(O)C1 | – | liver microsome stability | cynomolgus liver microsomes | 1 µM | – | hepatic clearance | 0.294 L/h/kg
C=CCn1c(=O)c2cnc(Nc3ccc(N4CCN(C)CC4)cc3)nc2n1-c1cccc(C(C)(C)O)n1 | – | – | human patients | oral, 175 mg twice daily, monotherapy, -5 day lead-in | – | AUC(0-10 h) | 7.64 µM·h
O=C(Nc1nc2cccc(-c3ccc(CN4CCS(=O)(=O)CC4)cc3)n2n1)C1CC1 | – | refers to: any adverse event | human rheumatoid arthritis patients | oral, 75 mg once daily, 4 weeks, regardless of relatedness | – | treatment-emergent adverse events | 31.8%
O=C(OC(C(F)(F)F)C(F)(F)F)N1CCN(Cc2cccc(Oc3ccccc3)c2)CC1 | – | PET blocking study | rhesus monkey, brain CB | 0.03 mg/kg, compound pretreatment, added: [18F]T-401 tracer | – | k2 | 0.071 min⁻¹
NC1(C(=O)N[C@@H](CCO)c2ccc(Cl)cc2)CCN(c2nc[nH]c3nccc2-3)CC1 | – | – | metastatic CRPC patients | 400 mg b.i.d., any grade, treatment-related, added: enzalutamide 160 mg daily | – | incidence of Somnolence | 14.3%
COc1cc(Nc2ncc3c(n2)-c2ccc(Cl)cc2C(c2c(F)cccc2OC)=NC3)ccc1C(=O)O | – | refers to: Hypertension, all grades | cancer patients, phase 1/2 | oral, dose not given, added: pembrolizumab | – | patients with adverse event | 13%
C=CC(=O)Nc1cc(Nc2nccc(Nc3cc(Cl)c(F)cc3C(C)(C)O)n2)c(OC)cc1N1CC[C@@H](N(C)C)C1 | – | – | male Han Wistar rat, brain | intravenous infusion, 2 µmol/kg/h, 4 h | relative to: plasma | tissue/plasma ratio | 0.25 ± 0.05
Cn1ncnc1[C@H]1c2n[nH]c(=O)c3cc(F)cc(c23)N[C@@H]1c1ccc(F)cc1 | – | – | human patients, plasma | oral, 600 µg/m2 twice daily, day 1, monotherapy, dose level DL5, median | – | AUC(0-8h) | 0.0243 µg·h/mL
CC(=O)N1CC(C(=O)Nc2ccc([C@H]3[C@@H](F)[C@@H](F)C[C@@H](F)[C@H]3F)cc2)C1 | – | liver microsome stability | mouse liver microsomes | 1 µM | – | hepatic clearance | 0.84 L/h/kg
CNCc1ccc(-c2[nH]c3cc(F)cc4c3c2CCNC4=O)cc1 | – | – | human patients | oral, 600 mg twice daily, grade 2 | – | pulmonary embolism incidence | 0%
Cc1cc(Nc2ccc(S(F)(F)(F)(F)F)cc2)n2nc(C(C)(F)F)nc2n1 | Plasmodium vivax | 12-lead Holter ECG | human malaria patients | oral, 600 mg, QTc above 500 ms | – | patients with QTcB above threshold | 0%
Cc1ccc(C)c(OCCCC(C)(C)C(=O)O)c1 | – | – | human, plasma | oral, dose not given, day 12 predose, mean | – | trough plasma concentration | 1980 ng/mL
N#Cc1ccc2c(c1)[C@H]1CCCN(C(=O)c3ccc4[nH]cnc4c3)[C@H]1C2 | – | – | human | 80 mg, end of trial | relative to: baseline | cortisol level change | -85 nmol/L
CCn1cc(C(=O)N2CCOCC2)c(=O)c2cc(NC3Cc4ccccc4C3)cnc21 | – | – | human, fed | oral tablet, 300 mg single dose, median | – | Tmax | 4 h
CCN1CCN(Cc2ccc(NC(=O)c3ccc(C)c(NC(=O)c4cncc(-c5cccs5)c4)c3)cc2C(F)(F)F)CC1 | – | LC-MS/MS | C57BL/6 mouse, plasma | intraperitoneal, 10 mg/kg single dose, 1 h | – | plasma concentration | 0.316 µg/mL and 0.285 µg/mL and 0.381 µg/mL
CC(=O)OC[C@H]1OC(OC(C)=O)[C@@H](NC(=O)CN=[N+]=[N-])[C@@H](OC(C)=O)[C@@H]1OC(C)=O (some centres unmarked) | – | refers to: RBC and WBC | C57BL/6 mouse | dose not given, day 0.5 to 7.5 | relative to: PBS | blood cell counts | no effect
Cn1cc(-c2ccc(-c3cncc(Cl)c3N3CCC4(CCNC4=O)CC3)cc2)cn1 | COLO 205 | gene expression, microarray, refers to: HIST2H4A mRNA | – | concentration not given, 6 h | relative to: untreated cells | log2 fold change | -2.63
COc1cccc2c1C(=O)c1c(O)c3c(c(O)c1C2=O)C[C@@](O)(C(=O)CO)C[C@@H]3O[C@H]1C[C@H](NC(=O)[C@@H]2CCCN2C(=O)CN)[C@H](O)[C@H](C)O1 | – | – | healthy mouse, plasma | intravenous, 94.4 mg/kg PhAc-ALGP-Dox | – | AUC | 1.04 µM·h
CN(Cc1cc(C(F)(F)F)cc(C(F)(F)F)c1)c1nc2ccccc2c(=O)s1 | – | chemical stability, HPLC-MS | borate buffered saline | pH 10.2, no N-acetyl-lysine | – | degradation rate constant | 0 h⁻¹
COc1ncc(-c2nc3c(n2C(C)C)[C@H](c2ccc(Cl)cc2)N(c2cc(Cl)cn(C)c2=O)C3=O)c(OC)n1 | – | – | human patients, plasma | oral, 20 mg, low-dose arm, cycle 2 day 1 | – | median half-life | 11.5 h

Some of these lines once more:
SMILES | tested on | assay | system | setting | scale | endpoint | result
CNCc1ccc(-c2[nH]c3cc(F)cc4c3c2CCNC4=O)cc1 | – | – | human patients | oral, 600 mg twice daily, grade 2 | – | pulmonary embolism incidence | 0%
Cc1ccc2c(c1)C(=O)[C@]1(O)CCN(c3ccc4nc(C)ccc4c3)C1=N2.Cl | – | – | rat, plasma | subcutaneous, dose not given, day 7 pre-dose, repeated daily dosing | – | trough plasma concentration | 0.43 µM
c1ncc(-c2ccc(C3CCCCC3)cc2)cn1 | – | hepatocyte stability | cryopreserved mouse hepatocytes | 1 µM | – | hepatic clearance | 3.96 L/h/kg
Cn1cc(-c2ccc(-c3cncc(Cl)c3N3CCC4(CCNC4=O)CC3)cc2)cn1 | COLO 205 | gene expression, microarray, refers to: HIST2H4A mRNA | – | concentration not given, 6 h | relative to: untreated cells | log2 fold change | -2.63
Cc1sc2ncn(CC(=O)O)c(=O)c2c1C | USP3 ZnF-UBD domain | – | – | – | – | Kd | 290 µM
O=C(O)Cn1cnc2ccccc2c1=O | USP3 ZnF-UBD domain | – | – | – | – | Kd | 328 µM
CNC(=O)c1ccc(-c2cnc3ncc(Cc4ccc5ncccc5c4)n3n2)cc1F | – | refers to: Diarrhea, all grades | gastric cancer patients | oral, 600 mg twice daily, expansion cohort, any causality | – | patients with adverse event | 11%
